Results collected from several papers.
Each line is one published result; not all experiments were run side by side.
Target: 5-hydroxytryptamine receptor 1A (HTR1A, Homo sapiens, UniProt P08908)
UniProt P08908, sequence (whole entry, looked up): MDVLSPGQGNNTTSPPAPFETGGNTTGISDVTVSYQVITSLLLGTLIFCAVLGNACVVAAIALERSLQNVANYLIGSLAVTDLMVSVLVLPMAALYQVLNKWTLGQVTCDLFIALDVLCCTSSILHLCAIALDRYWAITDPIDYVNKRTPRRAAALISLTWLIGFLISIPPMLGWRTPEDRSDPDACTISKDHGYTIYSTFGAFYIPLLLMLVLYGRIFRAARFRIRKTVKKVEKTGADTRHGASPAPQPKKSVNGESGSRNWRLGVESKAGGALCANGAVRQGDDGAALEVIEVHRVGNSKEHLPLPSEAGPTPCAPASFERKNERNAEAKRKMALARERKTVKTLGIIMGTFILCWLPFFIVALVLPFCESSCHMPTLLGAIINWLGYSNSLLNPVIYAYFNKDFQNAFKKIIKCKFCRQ

| SMILES | test | system | setting | quantity | value |
| --- | --- | --- | --- | --- | --- |
| CC1Cc2ccccc2N1C(=O)CN1CCN(c2ccccc2)CC1 (stereo not shown) | radioligand binding |  | concentration not given, together with: [3H]8-OH-DPAT | inhibition | 56.5% |
| Cc1[nH]nc2c1N=C(c1ccccc1Cl)c1cnc(N3CCOCC3)cc1N2 | ligand displacement |  | 10 µM | inhibition | -2% |
| C[Si](C)(C)C[C@@H](CN)CC(=O)O | ligand displacement, radioligand |  | 75 µM | inhibition | 0% |
| COc1ccc(S(=O)(=O)N2CCc3ccccc3C2)cc1N1CCN(C(=O)c2ccc(F)cc2C(F)(F)F)CC1 | ligand displacement, radioligand |  | 1 µM | inhibition | -2.1% |
| Cc1ccnc(OC[C@H]2CN(CCN3CCc4ccccc43)CCO2)c1 | radioligand binding |  | concentration not given, together with: [3H]8-OH-DPAT | inhibition | 27.5% |
| C[Si]1(C[C@H](CN)CC(=O)O)CCCC1 | ligand displacement, radioligand |  | 70 µM | inhibition | -3% |
| Cn1ccc2cc(-n3c(=O)[nH]c4sc5c(c4c3=O)CCCC5)ccc21 | ligand displacement, radioligand |  | 10 µM | inhibition | 3% |
| Cc1cccc(O[C@H]2CCC[C@@H](C(C)CNCc3ccncc3)C2)c1 (relative stereo) | ligand displacement |  | 10 µM | inhibition | 68% |
| CNC(=O)C[C@H](Cc1ccc(C#N)cc1)NC(=O)c1cc(-c2ccc(CN[C@H](C)c3ccc(C)cc3)o2)ccc1Cl | agonist response, antagonist | human cells | 10 µM, 5-HT1A antagonist | inhibition | 20% |
| COCC(=O)N1CCc2cc(-c3csc(NC(=O)c4cc(OC)cc(OC)c4)n3)ccc21 | ligand displacement, radioligand |  | 10 µM | inhibition | 0% |
| COc1ccc(C(=O)Nc2c(-c3cccs3)nc3ccccn23)cc1 | ligand displacement, radioligand |  | 10 µM | inhibition | < 50% |
| c1ccc(OC[C@H]2CN(CCN3CCc4ccccc43)CCO2)nc1 | radioligand binding |  | concentration not given, together with: [3H]8-OH-DPAT | inhibition | 51.7% |
| O=C1c2sc(-c3ccc(N4CCC(CO)CC4)nc3F)nc2CCN1c1cccnc1 | ligand displacement, radioligand |  | 1 µM | inhibition | -1% |
| COc1ncc2nc(C)n(Cc3ncc(S(N)(=O)=O)cc3F)c2c1-c1ccccc1 | agonist, cell-based |  | 10 µM | activation | 14.6% |
| Brc1ccccc1-c1nnc(CSc2nnnn2-c2ccccc2)o1 | ligand displacement, radioligand |  | 10 µM | inhibition | 26% |
| CO[C@@H](C)c1c(NC(=O)Nc2cnc(-n3nccn3)c(C(F)(F)F)c2)cnc2sc(C)nc12 | ligand displacement, radioligand |  | 10 µM | inhibition | 2.3% |

Repeated from above:
| SMILES | test | system | setting | quantity | value |
| --- | --- | --- | --- | --- | --- |
| C[Si](C)(C)C[C@@H](CN)CC(=O)O | ligand displacement, radioligand |  | 75 µM | inhibition | 0% |
